Published values of several laboratories.
Compare with care: the assays were run in different laboratories.
Target: Serine/threonine-protein kinase SIK1 (SIK1, Homo sapiens, UniProt P57059)
Sequence of UniProt P57059 (whole entry, looked up): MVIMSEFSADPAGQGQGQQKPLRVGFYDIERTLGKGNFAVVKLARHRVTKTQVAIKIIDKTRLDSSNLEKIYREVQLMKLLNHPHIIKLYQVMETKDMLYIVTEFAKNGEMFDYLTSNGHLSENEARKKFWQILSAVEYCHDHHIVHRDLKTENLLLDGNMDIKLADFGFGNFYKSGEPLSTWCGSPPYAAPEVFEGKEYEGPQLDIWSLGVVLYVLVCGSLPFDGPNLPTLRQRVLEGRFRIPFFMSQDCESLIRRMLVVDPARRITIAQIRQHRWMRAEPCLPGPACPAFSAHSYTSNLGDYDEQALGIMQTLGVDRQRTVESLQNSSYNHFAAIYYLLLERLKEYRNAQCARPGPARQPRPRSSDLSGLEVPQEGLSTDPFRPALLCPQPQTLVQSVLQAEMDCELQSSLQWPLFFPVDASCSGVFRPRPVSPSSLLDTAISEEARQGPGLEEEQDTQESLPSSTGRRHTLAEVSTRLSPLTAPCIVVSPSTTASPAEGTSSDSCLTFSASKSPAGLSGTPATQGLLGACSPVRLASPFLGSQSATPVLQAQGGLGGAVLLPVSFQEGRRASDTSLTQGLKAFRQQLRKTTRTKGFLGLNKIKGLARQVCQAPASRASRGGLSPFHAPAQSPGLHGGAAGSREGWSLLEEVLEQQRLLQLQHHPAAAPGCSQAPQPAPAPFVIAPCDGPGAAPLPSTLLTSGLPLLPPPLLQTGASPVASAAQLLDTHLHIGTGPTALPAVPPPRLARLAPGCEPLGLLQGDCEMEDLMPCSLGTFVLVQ

COc1cc(N2CCN(C)CC2)ccc1Nc1nc(N)n(C(=S)NCc2c(Cl)cccc2Cl)n1 — remaining activity (enzyme activity; 10 µM; reference: control): 0.15%
O=C(c1ccc(Nc2ncc(Cl)c(-c3ccc(Cl)s3)n2)cc1)N1CCC(N2CCCC2)CC1 — remaining binding (binding, KINOMEscan competition binding; 1 µM; reference: DMSO control): 92%
COc1cc(-c2cncc3c2CN(C)Cc2cc(N4CCNCC4)ccc2-3)cc(OC)c1OC — remaining activity (kinase activity; 1 µM, human enzyme, added: ATP 10 µM; reference: DMSO control): 92%
CSc1nc(C)c(-c2ccnc(Nc3ccc(N4CCOCC4)cc3)c2)[nH]1 — inhibition (kinase activity; 10 µM): 21.6%
Cc1cc(Nc2cc(N3CCN(C)CC3)nc(Sc3ccc(NC(=O)C4CC4)cc3)n2)[nH]n1 — remaining activity (kinase activity, KinaseProfiler; 0.03 µM, species human; reference: control): 96%
O=C(c1ccc(Nc2nccc(-c3cc4ccccc4s3)n2)cc1)N1CCC(N2CCCC2)CC1 — remaining binding (binding, KINOMEscan competition binding; 1 µM; reference: DMSO control): 58%
COc1ncc2cc3ccccc3nc2c1C#N — remaining binding (KINOMEscan; 5 µM; reference: DMSO): 97%
CNC(=O)[C@@H]1CC[C@@H](n2c(-c3ccc4cnccc4c3)nc3ccc(C(=O)NCc4cccc(C(N)=O)c4)cc32)C1 — remaining binding (KINOMEscan; 1 µM): 97%
Nc1ncnc2occ(-c3ccc(NC(=O)Nc4cc(C(F)(F)F)ccc4F)cc3)c12 — remaining activity (enzyme activity, inhibitor; 20 µM): 33%
CC/C(=N\NC(=O)NCc1cccc(O)c1)c1ccc(O)c(C)c1O — inhibition (kinase activity; 0.1 µM): -0.7%
C1=C/COCc2cc(ccc2OCCN2CCCC2)Nc2nccc(n2)-c2cccc(c2)COC/1 — remaining binding (0.1 µM; reference: DMSO control): 92%
FC(F)(F)Oc1cccc(-c2cnc3ccc(-c4ccncc4)nn23)c1 — remaining binding (KINOMEscan competition binding; 5 µM): 74%
O=C(NC1CCC1)c1ccc2nc(-c3cccc(NS(=O)(=O)NCCN4CCCCC4)c3)cn2c1 — remaining activity (enzyme activity; 10 µM): 100%
Cc1cnc(Nc2ccc(C(=O)N3CCC(N4CCCC4)CC3)cc2)nc1-c1cc2ccccc2s1 — remaining binding (binding, KINOMEscan competition binding; 1 µM; reference: DMSO control): 58%
CCN(CC)c1ccc(C2=NNC(=O)CC2C)cc1[N+](=O)[O-] (stereo not shown) — remaining activity (enzyme activity, inhibitor; 10 µM; reference: vehicle): 112%
O=C(Nc1c[nH]nc1C(=O)NC1CCNCC1)c1cc(F)cc(F)c1 — remaining binding (scanMAX; 1 µM; reference: untreated): 97%
